Measured values from different studies.
Lines come from different studies, so protocols differ. ± gives the spread as reported.

Structure (SMILES)	test	test system	conditions	scale	quantity	result
CCOc1c(C(C)(C)O)sc2cnc(Nc3ccc(N4CCC(N5CC6(COC6)C5)CC4)cc3OC)nc12		C57BL/6J mouse, TAC heart failure	oral, 30 mg/kg/day, 3 weeks after TAC, 7 days dosing		lung weight to tibia length	decreased
N[C@@H](Cc1ccccc1)C(=O)N1CCC[C@H]1C(=O)NCC(=O)NCC(=O)O	diketopiperazine formation, Arrhenius plot, ESI-MS	1-propanol	70, 80, 90 °C, 0.5% acetic acid		ΔG‡ at 298.15 K	95 ± 8 kJ/mol
C[C@@H](NC(=O)[C@@H](Cc1ccccc1)NC(=O)[C@@H](Cc1c[nH]cn1)NC(=O)[C@@H](Cc1ccc(O)cc1)NC(=O)[C@@H](CCC(=O)O)NC(=O)[C@@H](CO)NC(=O)[C@H](N)CCC(N)=O)C(=O)O		rabbit, AT1R autoantibody-immunised hypertension	iv, 1 mg/kg, 90 min, 6 weeks immunisation		mean arterial pressure	82 ± 6 mmHg
CC(C)(O)c1ccc(N2Cc3c(ccnc3-c3ccc(F)cc3OCC(F)(F)F)C2=O)cc1		Gaucher disease mouse model, plasma	10 mg/kg, 2 months once daily	reference: vehicle	glucosylceramide level	40 ± 4%
CCc1nnc(NS(=O)(=O)c2ccc(NC(=S)NC(=O)/C=C/c3ccc(F)cc3)cc2)s1		BE(2)-C xenograft, athymic nude mice	intraperitoneal, 20 mg/kg daily, 3 weeks	reference: vehicle	tumour weight	~60%
CC[C@H](C)[C@H](NC(=O)[C@H](CCCNC(=N)N)NC(=O)[C@@H]1CCCN1C(=O)[C@@H](NC(=O)[C@H](CCCNC(=N)N)NC(=O)[C@H](Cc1ccccc1)NC(=O)[C@H](CC(=O)O)NC(=O)[C@@H]1CCCN1C(=O)[C@@H]1CCCN1C(=O)[C@H](CO)NC(=O)[C@H](Cc1c[nH]c2ccccc12)NC(=O)[C@@H]1CCCN1C(=O)[C@@H]1CCCN1C(=O)[C@H](CC(C)C)NC(=O)[C@H](Cc1c[nH]c2ccccc12)NC(=O)[C@@H]1CCCN1C(=O)CNC(=O)[C@@H]1CCCN1C(=O)[C@H](Cc1c[nH]c2ccccc12)NC(=O)[C@H](CC(N)=O)NC(=O)[C@@H]1CCCN1C(=O)[C@@H]1CCCN1C(=O)[C@H](Cc1c[nH]c2ccccc12)NC(=O)[C@H](Cc1ccccc1)NC(=O)[C@@H]1CCCN1C(=O)[C@@H](NC(=O)[C@H](CCCNC(=N)N)NC(=O)[C@@H](N)CCCNC(=N)N)[C@@H](C)CC)[C@@H](C)CC)C(=O)N[C@@H](CC(C)C)C(=O)N[C@@H](CCCNC(=N)N)C(=O)N[C@@H](CCCCN)C(=O)N[C@@H](CCCNC(=N)N)C(=O)O	protein synthesis, luciferase reporter	E. coli coupled transcription-translation lysate	100 µM		inhibition	70%
COc1cc(Cn2ccc3cc(C(=O)NCC45CC6CC(CC(C6)C4)C5)ccc32)ccc1C(=O)NO	PET/CT	5xFAD mouse, brain	dose not given, added: [11C]PBR28	reference: vehicle-treated 5xFAD	decrease of TSPO PET signal	~41%
COc1ccc(C2CC(c3ccc(C)cc3)=Nc3ccccc3S2)cc1 (stereo not drawn)		Wistar rat, STZ-induced diabetes, serum	10 mg/kg, 28 days		ALT (SGPT)	24.4 ± 2.78 IU/L
O=C([O-])CN1CCN(CC(=O)[O-])CCN(CC(=O)NC[C@H]2CC[C@H](C(=O)N[C@H](Cc3cnc4ccccc4c3)C(=O)NCCCC[C@H](NC(=O)N[C@@H](CCC(=O)O)C(=O)O)C(=O)O)CC2)CCN(CC(=O)[O-])CC1.[64Cu+2]	PET/CT	patients suspected prostate cancer, bone lesions	2 h post-injection		mean SUVmax	21.5 ± 17
C=CC[C@H]1OC(=O)CCNC(=O)[C@H](C)N(C)C(=O)[C@H]([C@@H](C)CC)N(C)C(=O)[C@H]([C@@H](C)CC)NC(=O)[C@@H]2[C@@H](C)CCN2C1=O	western blot, refers to: p-PDGFR-β, p-AKT, p-ERK	mouse bile duct ligation fibrosis, liver	5 to 10 mg/kg/day, 8 days from day 6		protein phosphorylation	decreased
CCCCCCCCCn1cc(C(N)(CO)CO)nn1		APP/PS1 mouse, neurons	dose not given		ceramide level	decreased
Brc1ccc(Nc2nc(NN=Cc3c[nH]c4ccccc34)nc(N3CCOCC3)n2)cc1	Western blot, refers to: EGFR and AKT	mouse A549 xenograft, tumour	ip, 70 mg/kg single		protein level	inhibited
CCCCCCOC(=O)Cc1c(C)n(C(=O)c2ccc(Cl)cc2)c2ccc(OC)cc12	hot plate test	BALB/c mice	50 mg/kg, 120 min		latency of nociceptive response	15.7 ± 1.31 s
COc1c2c(cc3oc(CO)cc(=O)c13)O[C@H](C(C)(C)O)C2	analgesic effect	mouse	oral, 2 mg/kg, 2 h		hot plate latency	14.6 ± 1.8 s
CC(=O)[O-].Nc1ccc(C([O-])=NN=Cc2ccc(OCC(=O)Nc3ccc(Cl)cc3)cc2)cc1.O.O.O.[Ni+2]	ABTS radical scavenging, ABTS		concentration not given, 6 min		inhibition	69.5%
Cc1ccc(S(=O)(=O)N(CCc2nnc(S)n2N)c2ccc(Cl)cc2)cc1	granulation tissue formation	cotton pellet model	200 mg/kg		inhibition	33.2%
N[C@@H](Cc1c[nH]c2ccccc12)C(=O)N1CCC[C@H]1C(=O)NCC(=O)NCC(=O)O	diketopiperazine formation, Arrhenius plot, ESI-MS	1-propanol	70, 80, 90 °C, 0.5% acetic acid		ΔG‡ at 298.15 K	100 ± 7 kJ/mol
CC(C)(O)c1ncc([S@](N)(=O)=NC(=O)Nc2c3c(cc4c2CCC4)CCC3)s1	IL-1β release	healthy humans, whole blood ex vivo	oral, 25 mg twice daily, 24 h, steady state, maintained, crystalline tablets		inhibition	~90%
Cn1cncn1.[Ru+2].c1cc(-c2ccc3ccccc3n2)nc(-c2ccc3ccccc3n2)c1.c1ccc2cc3nc4c5cccnc5c5ncccc5c4nc3cc2c1		M1 macrophages, BALB/c mouse bone marrow-derived		reference: dark EC50 over light EC50	phototherapeutic index	8
C=C(c1ccc(C(=O)O)c(F)c1)c1cc2c(cc1C)C(C)(C)C=CC2(C)C	RNA sequencing, refers to: Aurkb mRNA	rat, brain	dose not given, 24 h, single dose	reference: vehicle	log2 fold change	0.4
CC(=O)N[C@@H](CC(N)=O)C(=O)NCC(=O)N[C@@H](CCCNC(=N)N)C(=O)N[C@@H](C)C(N)=O	1H NMR	sodium phosphate buffer 50 mM	pH 7.4, 28 °C		rate constant succinimide to α-Asp	0.086 h⁻¹
CC(C)(CCCC/C=C/CCCCCC(C)(C)C(=O)O)C(=O)O		rhesus monkey, spontaneous hyperlipidemia	20 mg/kg, 2 weeks	reference: baseline	reduction in plasma LDL-C	20.1%
CC[C@@H](C)N([11CH3])C(=O)c1nc(-c2ccccc2Cl)c2ccccc2n1	binding, PET	rhesus monkey, cerebellum	dose not given	reference: baseline minus preblock VT	specific volume of distribution	9.3 mL/cm³
CSCC[C@H](N)C(=O)N1CCC[C@H]1C(=O)NCC(=O)NCC(=O)O	diketopiperazine formation, Arrhenius plot, ESI-MS	1-propanol	70, 80, 90 °C, 0.5% acetic acid		ΔG‡ at 298.15 K	97 ± 14 kJ/mol
CC[C@H](C)[C@H](NC(=O)[C@H](CCCCN)NC(=O)[C@H](CC(N)=O)NC(=O)CNC(=O)[C@@H](NC(=O)[C@H](C)NC(=O)[C@H](CCCNC(=N)N)NC(=O)[C@H](CC(C)C)NC(=O)[C@H](CCCCN)NC(=O)[C@H](CCCCN)NC(=O)[C@H](CCCCN)NC(=O)[C@H](C)NC(=O)[C@H](CCCCN)NC(=O)[C@@H]1CSSC[C@H](NC(=O)[C@H](CCCNC(=N)N)NC(=O)CN)C(=O)N[C@@H](CC(N)=O)C(=O)N[C@@H](CC(C)C)C(=O)N[C@@H](CC(C)C)C(=O)N1)C(C)C)C(=O)N[C@@H](CCCCN)C(=O)N[C@@H](CCC(=O)O)C(=O)N[C@H](C(=O)N[C@@H](CCCCN)C(=O)N[C@@H](CC(N)=O)C(=O)N[C@H](C(=O)N[C@H](C(=O)N[C@@H](Cc1ccccc1)C(=O)N[C@@H](CC(N)=O)C(=O)N[C@@H](CCCNC(=N)N)C(=O)O)C(C)C)C(C)C)[C@@H](C)CC	refers to: IL-1β	BALB/c mice, CLP-induced sepsis, serum and lung	intraperitoneal, 5 mg/kg, 12 h post-surgery	reference: vehicle	cytokine level	decreased
CC(=O)[O-].O.[Cu+2].[O-]c1ccc(Br)cc1C=NCCN1CCOCC1	hydroxyl radical scavenging		240 µM		inhibition	56.1%
CCCCCCCCCCCCCCCC(=O)N[C@@H](CCC(=O)NCCCC[C@H](NC(=O)[C@H](CC(=O)O)NC(=O)[C@H](CO)NC(=O)[C@@H](NC(=O)[C@H](Cc1ccccc1)NC(=O)[C@@H](NC(=O)CNC(=O)[C@H](CCC(N)=O)NC(=O)[C@H](CO)NC(=O)[C@@H](N)Cc1c[nH]cn1)[C@@H](C)O)[C@@H](C)O)C(=O)N[C@@H](CO)C(=O)N[C@@H](CCC(=O)O)C(=O)N[C@@H](Cc1ccc(O)cc1)C(=O)N[C@@H](CC(C)C)C(=O)N[C@@H](CC(=O)O)C(=O)N[C@@H](CO)C(=O)N[C@@H](CCC(=O)O)C(=O)N[C@@H](CCCNC(=N)N)C(=O)N[C@@H](C)C(=O)N[C@@H](CCCNC(=N)N)C(=O)N[C@@H](CC(=O)O)C(=O)N[C@@H](Cc1ccccc1)C(=O)N[C@H](C(=O)N[C@@H](C)C(=O)N[C@@H](Cc1c[nH]c2ccccc12)C(=O)N[C@@H](CC(C)C)C(=O)N[C@@H](CCC(=O)O)C(=O)N[C@@H](C)C(=O)NCC(=O)NCC(=O)O)C(C)C)C(=O)O		diet-induced obese mouse	subcutaneous, 30 nmol/kg daily, end of treatment		cumulative food intake	50 g
C[C@H](NC(=O)COC(=O)[C@H](C)NC(=O)CO)C(=O)O		water	pH 3, 25 °C		depolymerization rate constant	0.001 h⁻¹
Cc1nc(C)c(C=[N+]([O-])C(C)(C)C)nc1C	Western blot, refers to: MEF2D	MPTP mouse model, substantia nigra cytosol	10 mg/kg		increase in protein level	26.1%
Cc1cc2c(cc1O)C=C1C=CC(=O)C(C)(C)[C@H]1CC2		mouse AOM/DSS colitis-associated cancer	100 mg/kg		small intestine adenomas per mouse	4.1

A few entries again:
Structure (SMILES)	test	test system	conditions	scale	quantity	result
C[C@H](NC(=O)COC(=O)[C@H](C)NC(=O)CO)C(=O)O		water	pH 3, 25 °C		depolymerization rate constant	0.001 h⁻¹
Cc1nc(C)c(C=[N+]([O-])C(C)(C)C)nc1C	Western blot, refers to: MEF2D	MPTP mouse model, substantia nigra cytosol	10 mg/kg		increase in protein level	26.1%
